Published values pooled from the literature.
Parts stem from different laboratories: compare values within a part only.
Chain of UniProt Q04771 (whole entry, looked up): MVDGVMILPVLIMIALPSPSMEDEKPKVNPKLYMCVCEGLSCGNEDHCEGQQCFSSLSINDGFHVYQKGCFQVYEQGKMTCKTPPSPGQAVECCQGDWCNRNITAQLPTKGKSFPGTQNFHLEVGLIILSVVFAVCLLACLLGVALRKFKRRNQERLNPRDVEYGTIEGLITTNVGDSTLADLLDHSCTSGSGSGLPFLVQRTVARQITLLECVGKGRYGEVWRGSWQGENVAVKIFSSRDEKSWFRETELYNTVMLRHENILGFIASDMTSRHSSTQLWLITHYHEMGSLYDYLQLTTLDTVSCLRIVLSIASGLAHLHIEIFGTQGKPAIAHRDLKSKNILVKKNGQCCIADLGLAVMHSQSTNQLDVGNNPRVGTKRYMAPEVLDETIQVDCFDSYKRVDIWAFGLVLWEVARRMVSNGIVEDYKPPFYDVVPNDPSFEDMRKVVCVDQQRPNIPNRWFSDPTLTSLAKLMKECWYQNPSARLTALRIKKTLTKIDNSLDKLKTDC
Chain of UniProt P46734 (whole entry, looked up): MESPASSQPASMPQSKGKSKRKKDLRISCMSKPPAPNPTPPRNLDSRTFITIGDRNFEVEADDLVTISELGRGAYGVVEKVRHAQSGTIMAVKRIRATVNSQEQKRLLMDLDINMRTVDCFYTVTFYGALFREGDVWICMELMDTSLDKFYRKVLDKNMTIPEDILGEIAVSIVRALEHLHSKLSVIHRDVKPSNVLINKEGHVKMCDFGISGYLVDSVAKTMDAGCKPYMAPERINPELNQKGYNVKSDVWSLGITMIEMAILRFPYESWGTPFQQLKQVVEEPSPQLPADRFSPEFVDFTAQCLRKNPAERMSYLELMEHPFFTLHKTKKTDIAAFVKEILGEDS
Chain of UniProt P35916 (whole entry, looked up): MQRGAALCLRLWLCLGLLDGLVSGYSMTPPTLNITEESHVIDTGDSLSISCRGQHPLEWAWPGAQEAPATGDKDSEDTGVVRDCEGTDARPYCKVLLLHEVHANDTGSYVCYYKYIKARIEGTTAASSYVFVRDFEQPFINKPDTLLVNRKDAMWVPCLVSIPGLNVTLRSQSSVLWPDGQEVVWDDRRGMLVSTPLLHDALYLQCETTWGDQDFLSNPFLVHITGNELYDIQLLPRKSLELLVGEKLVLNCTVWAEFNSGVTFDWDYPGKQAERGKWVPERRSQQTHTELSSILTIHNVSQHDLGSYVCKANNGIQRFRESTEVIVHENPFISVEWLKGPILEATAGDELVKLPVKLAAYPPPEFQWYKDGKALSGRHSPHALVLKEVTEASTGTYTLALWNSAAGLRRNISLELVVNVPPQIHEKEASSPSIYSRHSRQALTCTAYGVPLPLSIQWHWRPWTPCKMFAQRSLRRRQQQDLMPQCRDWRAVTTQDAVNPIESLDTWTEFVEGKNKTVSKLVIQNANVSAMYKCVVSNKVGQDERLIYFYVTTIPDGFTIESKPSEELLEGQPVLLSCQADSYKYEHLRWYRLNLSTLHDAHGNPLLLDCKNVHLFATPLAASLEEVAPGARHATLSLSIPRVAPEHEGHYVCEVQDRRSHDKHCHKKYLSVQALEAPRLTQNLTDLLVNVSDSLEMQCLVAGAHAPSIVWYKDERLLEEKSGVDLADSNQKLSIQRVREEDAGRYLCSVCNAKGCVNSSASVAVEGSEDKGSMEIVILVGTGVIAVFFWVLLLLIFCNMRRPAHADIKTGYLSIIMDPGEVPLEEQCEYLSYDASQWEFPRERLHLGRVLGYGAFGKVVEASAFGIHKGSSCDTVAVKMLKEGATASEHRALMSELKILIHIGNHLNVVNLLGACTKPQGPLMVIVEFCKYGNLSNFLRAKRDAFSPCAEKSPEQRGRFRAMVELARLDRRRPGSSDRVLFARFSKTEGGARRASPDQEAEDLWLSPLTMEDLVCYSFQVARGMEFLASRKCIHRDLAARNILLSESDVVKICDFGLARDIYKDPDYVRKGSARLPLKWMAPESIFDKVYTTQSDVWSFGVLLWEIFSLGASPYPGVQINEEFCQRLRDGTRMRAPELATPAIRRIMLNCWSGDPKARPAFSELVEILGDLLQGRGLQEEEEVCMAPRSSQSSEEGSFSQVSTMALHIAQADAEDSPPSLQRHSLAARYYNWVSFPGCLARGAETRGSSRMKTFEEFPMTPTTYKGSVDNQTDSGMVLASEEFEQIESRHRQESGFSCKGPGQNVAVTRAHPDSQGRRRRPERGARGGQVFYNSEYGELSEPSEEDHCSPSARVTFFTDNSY
Chain of UniProt P42336 (whole entry, unmodified, looked up): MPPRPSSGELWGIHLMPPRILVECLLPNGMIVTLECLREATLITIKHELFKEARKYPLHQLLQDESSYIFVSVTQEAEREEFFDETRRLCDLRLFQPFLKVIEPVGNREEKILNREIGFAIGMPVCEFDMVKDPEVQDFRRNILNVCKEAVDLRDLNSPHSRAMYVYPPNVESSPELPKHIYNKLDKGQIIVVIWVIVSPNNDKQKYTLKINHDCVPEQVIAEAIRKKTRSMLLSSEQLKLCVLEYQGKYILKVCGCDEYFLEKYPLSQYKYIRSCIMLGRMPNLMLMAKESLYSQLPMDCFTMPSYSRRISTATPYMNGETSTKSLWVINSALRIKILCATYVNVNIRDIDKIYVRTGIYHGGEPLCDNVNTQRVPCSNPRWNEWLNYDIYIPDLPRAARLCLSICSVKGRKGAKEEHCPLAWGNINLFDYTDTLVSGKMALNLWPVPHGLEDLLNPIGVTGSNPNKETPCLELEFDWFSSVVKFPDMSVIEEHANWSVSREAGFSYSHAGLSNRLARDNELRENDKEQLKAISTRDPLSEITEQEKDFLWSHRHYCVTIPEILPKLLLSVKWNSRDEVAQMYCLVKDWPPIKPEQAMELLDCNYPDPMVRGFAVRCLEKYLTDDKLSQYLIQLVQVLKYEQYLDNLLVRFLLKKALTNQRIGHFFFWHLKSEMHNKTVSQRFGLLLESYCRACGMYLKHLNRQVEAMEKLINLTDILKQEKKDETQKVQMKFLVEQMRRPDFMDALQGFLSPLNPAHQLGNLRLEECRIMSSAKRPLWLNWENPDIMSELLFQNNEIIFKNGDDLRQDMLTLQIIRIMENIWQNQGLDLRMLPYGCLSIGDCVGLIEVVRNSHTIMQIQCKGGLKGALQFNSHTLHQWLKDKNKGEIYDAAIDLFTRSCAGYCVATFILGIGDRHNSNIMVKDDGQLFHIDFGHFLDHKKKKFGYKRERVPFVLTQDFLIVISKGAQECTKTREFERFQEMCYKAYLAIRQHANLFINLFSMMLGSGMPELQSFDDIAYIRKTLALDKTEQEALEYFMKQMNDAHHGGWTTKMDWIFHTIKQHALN
Chain of UniProt Q96PY6 (whole entry, looked up): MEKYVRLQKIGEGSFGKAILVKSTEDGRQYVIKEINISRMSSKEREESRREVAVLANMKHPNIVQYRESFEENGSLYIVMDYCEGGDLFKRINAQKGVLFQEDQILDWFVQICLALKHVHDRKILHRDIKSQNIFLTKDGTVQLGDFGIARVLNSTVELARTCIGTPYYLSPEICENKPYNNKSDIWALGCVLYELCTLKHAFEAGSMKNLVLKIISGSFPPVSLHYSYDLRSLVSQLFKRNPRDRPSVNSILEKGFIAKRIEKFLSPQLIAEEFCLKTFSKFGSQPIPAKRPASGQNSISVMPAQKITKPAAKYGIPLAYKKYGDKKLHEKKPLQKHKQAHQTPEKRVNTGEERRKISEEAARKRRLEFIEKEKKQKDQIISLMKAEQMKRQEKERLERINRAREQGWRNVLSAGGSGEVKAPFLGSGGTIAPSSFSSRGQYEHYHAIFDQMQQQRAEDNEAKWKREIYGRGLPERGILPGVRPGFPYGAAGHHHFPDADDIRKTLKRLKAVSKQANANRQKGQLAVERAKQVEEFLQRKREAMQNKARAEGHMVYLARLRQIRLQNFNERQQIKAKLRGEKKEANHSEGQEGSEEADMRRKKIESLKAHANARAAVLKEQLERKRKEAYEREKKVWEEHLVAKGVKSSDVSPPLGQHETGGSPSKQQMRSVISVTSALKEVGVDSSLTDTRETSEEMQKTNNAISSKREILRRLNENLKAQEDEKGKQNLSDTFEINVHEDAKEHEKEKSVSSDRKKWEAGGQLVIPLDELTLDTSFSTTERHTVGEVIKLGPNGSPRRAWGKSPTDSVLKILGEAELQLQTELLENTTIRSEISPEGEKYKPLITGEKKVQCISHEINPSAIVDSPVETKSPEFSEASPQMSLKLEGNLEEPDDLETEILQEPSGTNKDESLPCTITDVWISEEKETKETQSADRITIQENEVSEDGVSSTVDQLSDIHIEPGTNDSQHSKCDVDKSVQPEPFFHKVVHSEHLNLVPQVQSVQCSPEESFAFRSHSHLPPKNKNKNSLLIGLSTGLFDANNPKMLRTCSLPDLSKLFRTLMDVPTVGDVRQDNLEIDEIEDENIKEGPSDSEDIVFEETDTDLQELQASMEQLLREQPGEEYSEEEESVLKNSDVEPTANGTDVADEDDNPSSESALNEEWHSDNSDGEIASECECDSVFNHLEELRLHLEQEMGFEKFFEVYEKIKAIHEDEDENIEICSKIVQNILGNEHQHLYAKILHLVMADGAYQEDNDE
Chain of UniProt P07947 (whole entry, looked up): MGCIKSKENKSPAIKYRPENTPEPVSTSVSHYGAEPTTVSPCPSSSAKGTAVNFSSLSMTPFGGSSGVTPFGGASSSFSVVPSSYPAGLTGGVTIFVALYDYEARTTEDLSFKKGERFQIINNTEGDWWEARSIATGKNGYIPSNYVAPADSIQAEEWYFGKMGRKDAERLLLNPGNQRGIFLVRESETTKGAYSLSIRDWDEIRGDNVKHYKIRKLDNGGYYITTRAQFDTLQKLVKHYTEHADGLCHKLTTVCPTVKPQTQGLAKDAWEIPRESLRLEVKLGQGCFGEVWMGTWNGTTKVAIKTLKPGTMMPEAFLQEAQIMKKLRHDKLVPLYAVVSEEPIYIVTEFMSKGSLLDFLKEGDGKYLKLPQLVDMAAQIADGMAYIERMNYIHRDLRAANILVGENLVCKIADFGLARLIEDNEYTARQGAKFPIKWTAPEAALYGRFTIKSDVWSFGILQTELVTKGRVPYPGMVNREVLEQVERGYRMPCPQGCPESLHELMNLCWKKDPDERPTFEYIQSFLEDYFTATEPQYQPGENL

Set 1
Target: PABPC1L2, full length, GST fusion (mouse, UniProt A0ABA7IW68)
Technique: RNAcompete
Form: RNA
Medium: in vitro
Tested at: 20 nM
Setting: 7-mer, probes averaged, single round
Relative to: mean of 7-mers
Reading: higher = stronger binding
Residues (chain): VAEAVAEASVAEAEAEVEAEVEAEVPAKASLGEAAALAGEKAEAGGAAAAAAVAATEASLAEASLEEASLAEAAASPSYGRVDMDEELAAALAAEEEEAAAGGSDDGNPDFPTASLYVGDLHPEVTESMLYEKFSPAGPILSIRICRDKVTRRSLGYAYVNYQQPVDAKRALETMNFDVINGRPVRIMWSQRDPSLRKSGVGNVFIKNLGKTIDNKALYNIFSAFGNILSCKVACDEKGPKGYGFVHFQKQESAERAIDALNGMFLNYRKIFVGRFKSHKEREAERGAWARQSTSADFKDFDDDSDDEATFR
Sequence | 7-mer Z-score
ACAAGCC | -0.0573
GAAUAUA | 0.0533
UACUUCG | -0.253
GAGCUGU | -0.255
GUAAAAU | 2.45
GGUCGCG | -0.162
AAAAGCU | 3.15
GCGCGGU | -0.0645

Set 2
Target: Muscle, skeletal receptor tyrosine-protein kinase (MUSK, Homo sapiens, UniProt O15146)
Observed: enzyme activity
Action: inhibitor
Tested at: 0.5 µM
Relative to: control
Residues (O15146 1-869): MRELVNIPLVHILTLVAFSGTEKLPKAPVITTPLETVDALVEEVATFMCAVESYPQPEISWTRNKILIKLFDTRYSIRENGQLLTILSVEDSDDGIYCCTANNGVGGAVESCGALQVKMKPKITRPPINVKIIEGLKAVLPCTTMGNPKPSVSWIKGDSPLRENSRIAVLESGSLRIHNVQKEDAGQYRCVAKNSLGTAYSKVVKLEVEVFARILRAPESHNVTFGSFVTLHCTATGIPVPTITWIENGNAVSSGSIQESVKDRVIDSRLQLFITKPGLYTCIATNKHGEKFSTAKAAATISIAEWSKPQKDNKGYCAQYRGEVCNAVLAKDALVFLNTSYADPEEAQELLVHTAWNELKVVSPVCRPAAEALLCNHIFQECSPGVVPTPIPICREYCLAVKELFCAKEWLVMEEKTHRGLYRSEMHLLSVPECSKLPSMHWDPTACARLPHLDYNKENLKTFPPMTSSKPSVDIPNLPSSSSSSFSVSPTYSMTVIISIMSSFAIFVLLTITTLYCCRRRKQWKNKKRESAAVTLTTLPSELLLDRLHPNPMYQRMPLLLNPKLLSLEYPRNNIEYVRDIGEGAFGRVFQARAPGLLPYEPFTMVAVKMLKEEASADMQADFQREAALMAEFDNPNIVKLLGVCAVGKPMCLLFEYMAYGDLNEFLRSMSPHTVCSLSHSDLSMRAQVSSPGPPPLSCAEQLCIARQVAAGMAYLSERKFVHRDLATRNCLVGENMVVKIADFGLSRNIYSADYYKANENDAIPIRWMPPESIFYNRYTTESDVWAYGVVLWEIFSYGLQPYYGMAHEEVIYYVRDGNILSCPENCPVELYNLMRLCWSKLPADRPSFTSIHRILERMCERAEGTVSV
Compound | remaining activity
N#CC(C#N)=C(N)/C(C#N)=C/c1ccc(O)cc1 | 103%
COc1ccc(CNC(=O)Nc2ncc([N+](=O)[O-])s2)cc1 | 115%
COc1cc2ncnc(Nc3ccc(Oc4ccccc4)cc3)c2cc1OC | 89.8%
O=C(O)c1ccc2c3c1cccc3c(=O)n1c3ccccc3nc21 | 47.1%
O=C1NC(=O)C(c2cn(CCCO)c3ncccc23)=C1c1cnccn1 | 67.2%
CCOC(=O)c1c(C)[nH]c(/C=C2\C(=O)Nc3ccccc32)c1C | 88.7%
O=S(=O)(c1cccc2cnccc12)N1CCCNCC1 | 97.6%
Nc1ccc2ncnc(NCCc3ccc(Oc4ccccc4)cc3)c2c1 | 102%
O=C(Nc1cccc(Nc2cc(Nc3cccc(C(F)(F)F)c3)ncn2)c1)C1CC1 | 113%
Cc1ccc(Nc2nccc(N(C)c3ccc4c(C)n(C)nc4c3)n2)cc1S(N)(=O)=O | 95.1%
CNC(=O)c1cc(Oc2ccc(NC(=O)Nc3ccc(Cl)c(C(F)(F)F)c3)cc2)ccn1 | 101%
COc1ccc(C(=O)Nc2sc3c(c2C(N)=O)CCCC3)cc1OC | 79.4%
CN(C)c1ccc(C=C2C(=O)Nc3ccccc32)cc1 | 96.4%
COc1cc2ncnc(Nc3ccc(F)c(Cl)c3)c2cc1OCCCN1CCOCC1 | 98.1%
Cc1cccc(-c2[nH]c(C(C)(C)C)nc2-c2ccc3c(c2)OCO3)n1 | 99.1%

Set 3
Structure (SMILES): COc1ccc2c(c1)O[C@H](c1ccc(OC)c(OC)c1)C[C@@H]2NC(=O)C1(c2ccc3c(c2)OC(F)(F)O3)CC1
Observed: cell-free assay
Technique: competition with immobilised ligand
Tested at: 1 µM
target | remaining binding [%]
ACVR1 (Homo sapiens, UniProt Q04771) | 98
MAP2K3 (Homo sapiens, UniProt P46734) | 100
NEK1 (Homo sapiens, UniProt Q96PY6) | 100
Tyrosine-protein kinase ABL1, phosphorylated (ABL1, Homo sapiens, UniProt P00519, T315I) | 100
YES1 (Homo sapiens, UniProt P07947) | 97
PIK3CA (Homo sapiens, UniProt P42336, E542K) | 95
FLT4 (Homo sapiens, UniProt P35916) | 97

Set 4
Target: RNA binding protein fox-1 homolog 2, RRM domain, GST-SBP tag (RBFOX2, Homo sapiens, UniProt O43251-10, residues 100-194)
Technique: RNA Bind-n-Seq
Form: RNA
Medium: in vitro
Tested at: 365 nM
Setting: natural RNA segment, single round, ends assumed
Relative to: no-protein control
Reading: higher = stronger binding
All sequences stand within: GGGAGUUCUACAGUCCGACGAUC … UGGAAUUCUCGGGUGCCAA
Sequence | RBNS enrichment (R)
GUUGAACUAAGUUAUGGAUUUGUGGUCUUUCAAAUACAUGACGCCUUUAGUAUGCCACACUGAAAUGAAUAAGAAGUCUUCUGAAACUGGGAACUUCAUAACAUUGAAGG | 0.361
GAAUCGUUCUGGUGCCUUAAUGCACAGCUGGAAUUCAGGUAAACACAUCAGCUGUUGCUGGCGGUUGGAAAGGAGGGCAUCUUGGCUGUGUGGCACUUAGUGGUCAGAUU | 0.456
UGUUCUCCAAACACAAUGGAAUUUCUUGUUCAAGAGCAGCUUCCAGAGUUGAGCCAGCCCUCGCUGCCUUGGGUGCUUGCUUACCACCAGUCAAGGUUGCUCUGAACUUU | 0.43
UGGGUAAAGUGAUGAGCCAUGUUUAUCUACUGAUCAGCUUCAUCAAAUUCGCAUCUAACUGAAUGGUAGUGUCUUUAAAAUGUGCUGUUUUAUUUUAAAAAUAAUGCAUG | 0.747
GAUCCAAUUGCCCCAGUCUCCCUGCAUUUGCUAUUAAGUGAAUAUGCUGAACUGUCAUAAAAUUUUUUCAACCCUUUAUUGUGAUUUCCAAUGUCUUGAAGUUUUAAGUG | 0.948
AGAAAAUAAAAGACUGCACUUUGGAGAGGCAAGCACGCUAUCCGGGUUGUUGUUUUGUUUUAUGUCUUGGUGCUUAGGUGAGGACUUAGCUGGGUUUAUUCAAAGUGGGC | 0.616
CCCCCACCUUCCCCAACCCUUCCUCAAGAGCUGAAGGGAUCCCAGCCCCUAGGUGGGCAGAGGCAGACCCUCCCCAGAGCUCCUUAGGAAGAAGACAGACUGGUUCAUUG | 0.558
AGCCUGUGAGCCUAGGAGACUGUGUGUGUGAGGUAAAGGGUGUAGUGGUGGCCUGGGCUGCUGAUGGAGGGGAAGCACCAGUAUCUAGGUGUCUUUGGUAGGGGUGUAUU | 2.77

Repeated from above (set 3):
target | remaining binding [%]
ACVR1 (Homo sapiens, UniProt Q04771) | 98
MAP2K3 (Homo sapiens, UniProt P46734) | 100
NEK1 (Homo sapiens, UniProt Q96PY6) | 100
Tyrosine-protein kinase ABL1, phosphorylated (ABL1, Homo sapiens, UniProt P00519, T315I) | 100
